# Results from different studies.
# A part holds a random share of what one study measured. Several values in a cell are separate wells, animals, samples, runs or records.
# Sequence of UniProt P29317 (whole entry, looked up): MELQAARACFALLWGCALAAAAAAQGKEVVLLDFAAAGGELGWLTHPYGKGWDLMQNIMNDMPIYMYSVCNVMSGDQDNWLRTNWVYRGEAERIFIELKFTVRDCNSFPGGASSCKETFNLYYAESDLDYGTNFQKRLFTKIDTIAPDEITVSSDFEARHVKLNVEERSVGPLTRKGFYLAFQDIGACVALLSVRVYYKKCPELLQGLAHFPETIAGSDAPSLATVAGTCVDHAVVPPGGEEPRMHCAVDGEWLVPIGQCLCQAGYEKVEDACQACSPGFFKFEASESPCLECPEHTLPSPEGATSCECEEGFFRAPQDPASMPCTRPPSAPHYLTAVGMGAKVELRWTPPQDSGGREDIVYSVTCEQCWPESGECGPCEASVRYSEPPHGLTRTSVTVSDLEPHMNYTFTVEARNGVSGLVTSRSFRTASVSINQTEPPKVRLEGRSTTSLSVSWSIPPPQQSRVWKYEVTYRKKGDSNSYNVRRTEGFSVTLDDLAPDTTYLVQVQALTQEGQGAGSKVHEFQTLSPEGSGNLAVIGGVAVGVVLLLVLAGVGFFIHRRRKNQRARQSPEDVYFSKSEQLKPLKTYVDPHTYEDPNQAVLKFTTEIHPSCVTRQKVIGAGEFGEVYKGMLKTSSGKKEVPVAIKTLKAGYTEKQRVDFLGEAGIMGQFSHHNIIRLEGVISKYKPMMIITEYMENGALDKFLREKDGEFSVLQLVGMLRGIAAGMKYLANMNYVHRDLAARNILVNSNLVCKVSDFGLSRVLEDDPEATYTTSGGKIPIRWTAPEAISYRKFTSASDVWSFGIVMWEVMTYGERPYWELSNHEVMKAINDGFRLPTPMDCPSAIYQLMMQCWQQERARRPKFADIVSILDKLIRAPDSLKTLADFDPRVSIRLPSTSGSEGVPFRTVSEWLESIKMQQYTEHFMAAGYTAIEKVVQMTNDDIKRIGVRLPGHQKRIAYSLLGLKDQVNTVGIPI
# Sequence of UniProt Q9H4B4 (whole entry, looked up): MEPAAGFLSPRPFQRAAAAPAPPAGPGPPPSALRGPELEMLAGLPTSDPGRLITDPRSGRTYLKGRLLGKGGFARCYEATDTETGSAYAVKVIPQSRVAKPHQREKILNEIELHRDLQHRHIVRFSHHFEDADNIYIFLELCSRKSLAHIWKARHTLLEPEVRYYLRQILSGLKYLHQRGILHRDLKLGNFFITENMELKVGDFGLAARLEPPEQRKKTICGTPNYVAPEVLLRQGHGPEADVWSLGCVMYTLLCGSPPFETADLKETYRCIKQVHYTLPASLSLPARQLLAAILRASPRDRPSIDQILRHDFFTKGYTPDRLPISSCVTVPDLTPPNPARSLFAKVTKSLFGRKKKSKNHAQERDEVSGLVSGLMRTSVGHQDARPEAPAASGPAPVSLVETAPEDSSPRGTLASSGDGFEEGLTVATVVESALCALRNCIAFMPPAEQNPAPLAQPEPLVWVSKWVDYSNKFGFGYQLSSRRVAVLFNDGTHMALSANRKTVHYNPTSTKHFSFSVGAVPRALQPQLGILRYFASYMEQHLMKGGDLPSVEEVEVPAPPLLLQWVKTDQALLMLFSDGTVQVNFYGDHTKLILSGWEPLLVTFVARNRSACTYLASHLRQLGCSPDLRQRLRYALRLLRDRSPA
# Sequence of UniProt P23458 (whole entry, looked up): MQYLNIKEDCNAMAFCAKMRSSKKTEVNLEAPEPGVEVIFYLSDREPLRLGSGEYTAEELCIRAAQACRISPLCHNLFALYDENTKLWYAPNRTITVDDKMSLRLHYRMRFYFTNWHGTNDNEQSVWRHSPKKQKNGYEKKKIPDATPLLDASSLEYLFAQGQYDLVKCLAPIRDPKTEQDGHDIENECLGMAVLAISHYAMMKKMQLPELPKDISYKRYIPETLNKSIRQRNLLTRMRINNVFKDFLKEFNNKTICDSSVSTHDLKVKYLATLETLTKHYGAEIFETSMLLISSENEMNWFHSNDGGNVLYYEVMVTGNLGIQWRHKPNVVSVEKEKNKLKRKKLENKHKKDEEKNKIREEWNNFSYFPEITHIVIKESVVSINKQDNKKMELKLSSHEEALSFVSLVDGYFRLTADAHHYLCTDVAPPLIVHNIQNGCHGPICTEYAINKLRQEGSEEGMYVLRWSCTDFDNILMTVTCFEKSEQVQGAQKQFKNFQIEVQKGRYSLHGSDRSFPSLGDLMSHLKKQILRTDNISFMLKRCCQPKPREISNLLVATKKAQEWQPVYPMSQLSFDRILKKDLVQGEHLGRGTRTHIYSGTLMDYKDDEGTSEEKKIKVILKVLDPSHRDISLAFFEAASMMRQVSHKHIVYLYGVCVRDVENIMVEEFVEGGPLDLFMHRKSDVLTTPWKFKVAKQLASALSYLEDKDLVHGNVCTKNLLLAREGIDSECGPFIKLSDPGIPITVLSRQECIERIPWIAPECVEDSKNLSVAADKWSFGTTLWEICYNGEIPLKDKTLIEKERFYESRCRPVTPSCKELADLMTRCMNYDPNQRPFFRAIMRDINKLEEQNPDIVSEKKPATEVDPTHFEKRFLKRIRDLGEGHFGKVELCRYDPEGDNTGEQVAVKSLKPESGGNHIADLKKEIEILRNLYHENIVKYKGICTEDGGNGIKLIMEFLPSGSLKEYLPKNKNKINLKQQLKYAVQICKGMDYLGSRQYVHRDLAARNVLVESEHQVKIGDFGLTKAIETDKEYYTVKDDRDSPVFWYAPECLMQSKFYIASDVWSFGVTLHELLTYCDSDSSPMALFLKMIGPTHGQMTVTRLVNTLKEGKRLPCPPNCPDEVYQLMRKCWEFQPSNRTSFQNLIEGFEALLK
# Sequence of UniProt O94768 (whole entry, looked up): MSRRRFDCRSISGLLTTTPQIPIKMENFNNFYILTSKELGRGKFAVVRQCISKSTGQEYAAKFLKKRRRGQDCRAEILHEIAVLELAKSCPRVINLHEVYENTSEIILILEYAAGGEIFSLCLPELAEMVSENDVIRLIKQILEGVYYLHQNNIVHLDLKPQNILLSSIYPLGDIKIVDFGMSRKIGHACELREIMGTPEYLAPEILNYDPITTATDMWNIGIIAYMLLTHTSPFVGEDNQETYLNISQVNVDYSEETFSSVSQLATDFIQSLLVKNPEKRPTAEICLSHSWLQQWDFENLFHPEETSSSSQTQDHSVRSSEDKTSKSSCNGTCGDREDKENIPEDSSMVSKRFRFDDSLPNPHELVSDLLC
# Sequence of UniProt P11309 (whole entry, looked up): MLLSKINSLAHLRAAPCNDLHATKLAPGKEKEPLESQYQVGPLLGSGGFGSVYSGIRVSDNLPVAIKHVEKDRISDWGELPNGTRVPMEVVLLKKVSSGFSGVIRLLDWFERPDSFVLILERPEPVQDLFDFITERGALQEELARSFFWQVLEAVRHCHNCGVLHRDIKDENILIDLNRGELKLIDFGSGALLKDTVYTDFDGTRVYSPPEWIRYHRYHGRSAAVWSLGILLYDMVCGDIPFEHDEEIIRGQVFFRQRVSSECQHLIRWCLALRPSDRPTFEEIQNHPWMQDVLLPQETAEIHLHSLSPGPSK
# Sequence of UniProt P49840 (whole entry, looked up): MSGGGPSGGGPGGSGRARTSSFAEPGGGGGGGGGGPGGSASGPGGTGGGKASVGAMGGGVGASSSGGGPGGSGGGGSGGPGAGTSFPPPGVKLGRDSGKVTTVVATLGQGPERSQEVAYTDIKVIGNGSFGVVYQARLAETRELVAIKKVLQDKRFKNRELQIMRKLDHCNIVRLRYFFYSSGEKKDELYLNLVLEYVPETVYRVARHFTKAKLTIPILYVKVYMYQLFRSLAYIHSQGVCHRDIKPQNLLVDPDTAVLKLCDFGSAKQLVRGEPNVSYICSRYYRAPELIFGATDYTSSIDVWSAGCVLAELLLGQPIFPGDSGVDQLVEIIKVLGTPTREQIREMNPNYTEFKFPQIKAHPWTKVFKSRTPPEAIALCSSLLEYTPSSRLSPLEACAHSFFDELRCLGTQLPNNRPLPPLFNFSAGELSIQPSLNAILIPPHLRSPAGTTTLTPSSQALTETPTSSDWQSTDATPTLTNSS

# Set 1 — read-out: enzyme activity; mode: inhibitor; tested at: 0.5 µM; relative to: control
# Target: Mitogen-activated protein kinase kinase kinase 11 (MAP3K11, Homo sapiens, UniProt Q16584)
# Sequence of UniProt Q16584 (whole entry, looked up): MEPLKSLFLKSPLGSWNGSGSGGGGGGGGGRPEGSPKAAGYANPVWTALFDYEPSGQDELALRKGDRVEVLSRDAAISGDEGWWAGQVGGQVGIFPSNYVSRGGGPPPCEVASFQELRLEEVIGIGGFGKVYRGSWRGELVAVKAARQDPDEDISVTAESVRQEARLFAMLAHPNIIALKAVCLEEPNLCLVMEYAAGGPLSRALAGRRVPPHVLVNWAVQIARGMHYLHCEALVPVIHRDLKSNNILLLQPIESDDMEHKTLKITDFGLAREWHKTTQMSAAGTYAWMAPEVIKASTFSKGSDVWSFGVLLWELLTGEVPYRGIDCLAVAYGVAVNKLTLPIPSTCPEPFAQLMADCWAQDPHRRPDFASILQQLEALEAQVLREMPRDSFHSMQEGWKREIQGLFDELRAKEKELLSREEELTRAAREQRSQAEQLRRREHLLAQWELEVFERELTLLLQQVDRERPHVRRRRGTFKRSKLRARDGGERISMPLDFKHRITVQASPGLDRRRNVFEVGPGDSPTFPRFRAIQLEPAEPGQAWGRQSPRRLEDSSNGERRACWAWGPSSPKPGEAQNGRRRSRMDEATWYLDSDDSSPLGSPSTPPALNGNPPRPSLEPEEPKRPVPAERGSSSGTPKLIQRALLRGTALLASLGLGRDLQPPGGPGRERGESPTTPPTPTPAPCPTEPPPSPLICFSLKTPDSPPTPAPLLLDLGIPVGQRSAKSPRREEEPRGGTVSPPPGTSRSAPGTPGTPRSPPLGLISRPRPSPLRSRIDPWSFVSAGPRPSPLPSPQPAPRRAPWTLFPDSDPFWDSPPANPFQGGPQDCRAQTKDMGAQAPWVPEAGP
SMILES,remaining activity [%]
Oc1ccc(-c2nc(-c3ccncc3)c(-c3ccc(F)cc3)[nH]2)cc1,25.2
COc1cc2nccc(Oc3ccc(NC(=S)NC(=O)c4ccccc4C)cc3)c2cc1OC,95.5
CCOC(=O)c1c(C)[nH]c(/C=C2\C(=O)Nc3ccccc32)c1C,47
C#Cc1cccc(Nc2ncnc3cc(OCCOC)c(OCCOC)cc23)c1,104
COc1ccc(CNC(=O)Nc2ncc([N+](=O)[O-])s2)cc1,101
Nc1ncnc2n[nH]c(Nc3ccc(F)cc3)c12,93.9
Nc1ccc2ncnc(NCCc3ccc(Oc4ccccc4)cc3)c2c1,103
Cc1cccc(-c2[nH]c(C(C)(C)C)nc2-c2ccc3c(c2)OCO3)n1,96.2
CN(C)c1ccc(C=C2C(=O)Nc3ccccc32)cc1,88.4
O=C(CCCc1ccc(-c2ccccc2F)cc1)Nc1ccc(O)cc1,101
Nc1[nH]nc2nc3ccccc3nc12,96.3
Cn1sc(=O)n(Cc2ccccc2)c1=O,95.3
O=C1NC(=O)C(c2cn(CCCO)c3ncccc23)=C1c1cnccn1,80.8
OCC(O)CCON=C1C(c2c(O)[nH]c3ccccc23)=Nc2ccccc21 (stereo not shown),10.5

# Set 2 — read-out: cell-free assay; method: competition with immobilised ligand; tested at: 1 µM
# Compound: COc1cc(-c2cn(C3CCc4ccccc4N(CC(F)(F)F)C3=O)nn2)ccc1-n1ccc(C)n1 (stereo not shown)
target,remaining binding [%]
"PLK3 (Homo sapiens, UniProt Q9H4B4)",96
"GRK2 (Homo sapiens, UniProt P25098)",87
"EPHA2 (Homo sapiens, UniProt P29317)",100
"LATS1 (Homo sapiens, UniProt O95835)",71
"Tyrosine-protein kinase JAK1, JH2 (JAK1, Homo sapiens, UniProt P23458)",87
"PIK3CA (Homo sapiens, UniProt P42336, E545A)",71
"GSK3A (Homo sapiens, UniProt P49840)",86
"PIM1 (Homo sapiens, UniProt P11309)",100
"STK17B (Homo sapiens, UniProt O94768)",100

# Set 3 — cell line: A-375; tested at: 100 µM; time: 18 h
Compound,viability
COC(=O)C1=CO[C@@H](O)[C@@H]2C(CO)=CC[C@H]12,94.6%
CN(C)CCC=C1c2ccccc2C=Cc2ccccc21,11.7%
COc1cc2c(cc1Cc1cccc(Cl)c1F)c(=O)c(C(=O)O)cn2[C@H](CO)C(C)C,62%
CC1(C)S[C@@H]2[C@H](NC(=O)[C@H](N)c3ccc(O)cc3)C(=O)N2[C@H]1C(=O)O,86.7% and 96.5%
COc1c2occc2c(OC)c2c(=O)cc(C)oc12,95.8%
Nc1nc(=O)[nH]cc1F,99.6%
CN1CCC[C@@H]1Cc1c[nH]c2ccc(CCS(=O)(=O)c3ccccc3)cc12,93.8%
Cc1ccc(/C(=C\CN2CCCC2)c2ccccn2)cc1,60.6%

# Set 4 — organism: Sarcocystis neurona; read-out: parasite growth; tested at: 10 µM
Structure (SMILES),inhibition
Oc1ccc(C2CNCCc3c2cc(O)c(O)c3Cl)cc1 (stereo not shown),-23.5%
CC(C)[N+](C)(CCOC(=O)C1c2ccccc2Oc2ccccc21)C(C)C.[Br-],-30.1%
O=C1CCc2ccc(OCCCCN3CCN(c4cccc(Cl)c4Cl)CC3)cc2N1,10.6%
c1ccc(CC2=NCCN2)cc1,-28.3%
CN1CCN(C2=Nc3ccccc3Oc3ccc(Cl)cc32)CC1,-19.9%
COc1cc(-c2ccc(=O)[nH]n2)ccc1OC(F)F,-46.5%

# A few entries again (set 2):
target,remaining binding [%]
"GRK2 (Homo sapiens, UniProt P25098)",87
"EPHA2 (Homo sapiens, UniProt P29317)",100
"LATS1 (Homo sapiens, UniProt O95835)",71
